Assay results gathered from unrelated publications.
Numbered parts are unrelated; each lists some results of a single study. Substitutions count along the parent as printed.

Series 1
Target: CCND2, cyclin fold, Cln2 fusion (human)
Technique: yeast growth competition, sequencing
Medium: yeast
Notes: weak parent motif
Relative to: not given
Reading: higher = stronger binding
Starting sequence: E2F8 docking peptide (human); FVPQRKLEVSTED
| Change | normalised enrichment score |
| --- | --- |
| FVPQRKLEVSAED [T11A] | 0.0786 |
| FVPARKLEVSTED [Q4A] | -0.309 |
| FVPQRKLEVATED [S10A] | 0.137 |
| FAPQRKLEVSTED [V2A] | 0.144 |
| FVAQRKLEVSTED [P3A] | 0.132 |
| FVPQRKLEFSTED [V9F] | 0.0358 |
| FVPQRKLELSTED [V9L] | -0.356 |
| FVPQAKAEVSTED [R5A L7A] | 0.0931 |
| FVPQRKLAVSTED [E8A] | 0.151 |
| FVPQKKLELSTED [R5K V9L] | -0.125 |
| FVPQRALEVSTED [K6A] | 0.0467 |

Series 2
Target: ABI1, truncated, D143A, DHFR fusion (Arabidopsis thaliana)
Technique: DHFR PCA, deep sequencing
Medium: yeast
Notes: methotrexate growth selection, single substitutions
Together with: (+)-ABA 4.8 µM
Relative to: wild-type fitted maximum
Reading: higher = stronger binding
Starting sequence: PYL1, truncated, DHFR fusion (Arabidopsis thaliana); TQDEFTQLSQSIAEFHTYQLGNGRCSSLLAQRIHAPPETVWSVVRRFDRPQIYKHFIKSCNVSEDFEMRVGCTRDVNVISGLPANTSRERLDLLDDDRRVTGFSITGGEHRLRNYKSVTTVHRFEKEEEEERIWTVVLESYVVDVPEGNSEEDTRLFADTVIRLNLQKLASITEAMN; partner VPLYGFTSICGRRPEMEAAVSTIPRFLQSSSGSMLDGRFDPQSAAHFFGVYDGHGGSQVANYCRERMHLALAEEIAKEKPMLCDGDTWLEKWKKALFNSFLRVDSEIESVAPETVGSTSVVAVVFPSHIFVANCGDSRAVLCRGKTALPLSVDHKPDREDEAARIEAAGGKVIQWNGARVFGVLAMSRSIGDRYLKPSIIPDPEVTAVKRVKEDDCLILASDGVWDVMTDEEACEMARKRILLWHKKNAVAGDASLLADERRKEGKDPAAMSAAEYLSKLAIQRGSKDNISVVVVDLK
| Change | relative binding score [%] |
| --- | --- |
| T73K | 51.8 |
| Y141D | -12.4 |
| D65Y | 31.2 |
| S80C | 22.2 |
| I133P | 96.9 |
| V70H | 13.3 |
| A170I | -3.61 |
| G21F | 40.9 |
| K168M | 29.4 |
| Q10D | 86.8 |
| S87C | 22.6 |
| C60F | 2.67 |
| E152A | 74.1 |
| D75H | 77 |
| N22S | 75.7 |
| R46A | 64.8 |

Series 3
Target: Histone acetyltransferase KAT6A, winged helix 1, GST fusion (KAT6A, Homo sapiens, UniProt Q92794, residues 1-85)
Technique: protein binding microarray
Molecule type: double-stranded DNA, one strand shown
Medium: in vitro
Tested at: not given
Notes: 8-mer, flanks averaged, mean of 2 arrays, mostly near background
Relative to: not given
Reading: higher = stronger binding
Residues (chain): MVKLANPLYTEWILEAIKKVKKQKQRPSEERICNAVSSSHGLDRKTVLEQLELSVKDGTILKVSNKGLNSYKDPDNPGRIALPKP
| Sequence | E-score |
| --- | --- |
| AGCTCCAA | -0.258 |
| ACGCGAAG | 0.0688 |
| AACAATCA | -0.118 |
| ACTAGTAG | 0.0483 |
| GGCCCGTA | 0.281 |
| CACGGAAA | 0.231 |
| CATTAATA | -0.0783 |
| GGCGCGGA | 0.375 |
| CCTTGACC | 0.0651 |
| AGCTGCGC | 0.204 |
| CCGCACCA | 0.0399 |
| CCTAGCCA | -0.283 |
| GTCACAGA | -0.113 |
| TGGGATAA | -0.279 |
| CTGTTGAA | -0.119 |
| GGACTTCA | -0.0349 |
| GCTGAACC | 0.00899 |

Series 4
Target: NFE2L3, bZIP domain (human)
Technique: DHFR protein complementation
Medium: yeast
Notes: single substitutions, most at no-binding floor
Relative to: wild-type JUN-FOS pair
Reading: higher = stronger binding
Starting sequence: JUN, bZIP domain (human); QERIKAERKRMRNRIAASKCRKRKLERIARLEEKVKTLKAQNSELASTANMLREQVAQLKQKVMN; partner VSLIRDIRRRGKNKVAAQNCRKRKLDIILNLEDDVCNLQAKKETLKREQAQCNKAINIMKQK
| Change | binding fitness [natural log] |
| --- | --- |
| I28L | -1.44 |
| V35W | -1.34 |
| V56P | -1.57 |
| A46M | -1.58 |
| V35E | -1.48 |
| Q41S | -1.41 |
| Q55N | -1.62 |
| N42L | -1.48 |
| L31F | -1.53 |
| A29T | -1.35 |
| S47P | -1.52 |
| S43E | -1.15 |
| T48S | -1.32 |
| S47G | -1.29 |
| L52V | -1.55 |
| N42E | -1.5 |
| A40V | -1.28 |
| L38T | -1.55 |
| R53I | -1.31 |
| I28S | -1.49 |
| A57Q | -1.53 |
| L38H | -1.48 |
| K39R | -1.38 |
| L45S | -1.54 |
| K39E | -1.39 |

Series 5
Target: RNA binding protein fox-1 homolog 2, RRM domain, GST-SBP tag (RBFOX2, Homo sapiens, UniProt O43251-10, residues 100-194)
Technique: RNA Bind-n-Seq
Molecule type: RNA
Medium: in vitro
Tested at: 365 nM
Notes: natural RNA segment, single round, ends assumed
Relative to: no-protein control
Reading: higher = stronger binding
Target sequence (chain): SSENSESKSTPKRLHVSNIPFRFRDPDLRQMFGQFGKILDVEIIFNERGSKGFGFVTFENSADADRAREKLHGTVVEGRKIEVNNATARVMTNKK
| Sequence | RBNS enrichment (R) |
| --- | --- |
| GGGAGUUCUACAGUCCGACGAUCGACCCUUUUUAAACAAUGCUGAGCAGGCCCUGAGCUAUAAUCAACGGUGAGCUUUAAUGUCUAUGCUGACAGUUAGGUUUUGCUCUCUUUUGUAACAGGUUACGUAGACCUGGAAUUCUCGGGUGCCAA | 0.338 |
| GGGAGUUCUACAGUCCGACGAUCUGGCAAGCUGGCCAGCCCUCUUCACUCCAGCGUUCUUCACUGCUCUAUGUCUGCUUACACAGCUUGGACAUGGCUGCUUUCCAUGAAGGAAAUAUAGGGGAGGUGGACUGUGGAAUUCUCGGGUGCCAA | 0.265 |
| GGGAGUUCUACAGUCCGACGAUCGUGGCUGGAUGUUCUCACGCCUGGCUCCGUUCUGCCUGUCUGGAGGCCUGGUCUGCUGGUCCACCUUCUUGACUGAAGAUUGGGUGUUUUCCAUAUUCUGGGAACAUUUUUGGAAUUCUCGGGUGCCAA | 0.297 |
| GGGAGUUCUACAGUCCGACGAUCUCCUGUAUAACAGACUGAGUCUAUUUAUAUUUUCUUUUUUUUAAGACUGUCUAGAAAUUUUGUGUAUUAUGAGGGGAAAAAAGGAAAAGCUUGAAUCUGUGUAGUCUCUGUGGAAUUCUCGGGUGCCAA | 3.59 |
| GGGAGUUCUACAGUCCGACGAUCAGGCAUCUCAAAUCCACUGACAGAUAAGAAAACCGCGUUAGAGGGAAAGUCACCUCUGCUAUUGUAGAAAGUGGCAGAAUAUCCAAACUUAACUCUAGCUUCCAUGUCUGUGGAAUUCUCGGGUGCCAA | 0.289 |
| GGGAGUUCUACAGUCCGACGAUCGCGGGCAGGUUUCUAGGCUGCUCUAAGCUUCUACCUUGAAGGCAGUUGGGUCUGAUAAUAGUACCUUCUUCCUGGGGUGGUUGUGAGGAUAUAACGAGGUAAUGCAUGUAUGGAAUUCUCGGGUGCCAA | 24.2 |
| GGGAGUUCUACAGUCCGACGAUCAGAGUGCAGUGGAGUUGCGCUGGCCAUCAGUGUUUGGGGUCUGAGUUUGAUAGACUAGUGCAGCGAUCAGCCAUAUGAUUGAGAGCUACUUUGGGGAUAUAUGGUACGUUUGGAAUUCUCGGGUGCCAA | 1.49 |
| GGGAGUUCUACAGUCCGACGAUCAGAAAACUGGACCUGAGGGCAUUAGGAACAUCCUACAGAGUUGUGUUUAGUGUCGUUUGCCAUGGUAUUUCACAGUGAAACAUGGAUACUCUCCACACAUCAUUUACUUCUGGAAUUCUCGGGUGCCAA | 0.365 |
| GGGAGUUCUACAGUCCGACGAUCUUCUAGCCAGAUCAGCCACUGAGCGGUAAGCAUCAGCGCUCAGCAGAGCCUUCCGAGCAGCAUUUAGAAAGCACCUUUGGGAAUGAUGGACUGCAAGGGAGUGGGCGGAUUGGAAUUCUCGGGUGCCAA | 13.1 |
| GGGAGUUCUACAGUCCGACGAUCCAUAAGGAGCUUUAGACCAGUCAAUGAUACAUAGUGAAACCCUACCUCAAAAACAAAACAAAAAAAAUGUUUUUACGCAUUUUAUCAAAAUUAGCACAUCUGUGGCUGAGUGGAAUUCUCGGGUGCCAA | 0.48 |
| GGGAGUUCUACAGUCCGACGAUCAAACUAUCCUGGACACUCCCUCCUGCUUCCACCAAUUUUUUUCUCACCCCCUUUUCAAAAAUUGAAAACUCUAUGAGUGUCUUUUUGAGACCAUAAAGCAGACUUUAGUAUGGAAUUCUCGGGUGCCAA | 0.801 |
| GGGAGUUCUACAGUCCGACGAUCGACAUAUUCAAAAGGUGGGCUUGUCUAAGGUUCCCACAGAAAUGUAAGUAUGAGCCUACUGUUUUGUUUCCUAGUCCCAUGGACAAGUAGCAUACCAGGGGGCAAGAAGCUGGAAUUCUCGGGUGCCAA | 0.38 |

Repeated from above (series 5):
| Sequence | RBNS enrichment (R) |
| --- | --- |
| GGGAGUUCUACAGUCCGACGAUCGACCCUUUUUAAACAAUGCUGAGCAGGCCCUGAGCUAUAAUCAACGGUGAGCUUUAAUGUCUAUGCUGACAGUUAGGUUUUGCUCUCUUUUGUAACAGGUUACGUAGACCUGGAAUUCUCGGGUGCCAA | 0.338 |
| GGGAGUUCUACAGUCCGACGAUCUGGCAAGCUGGCCAGCCCUCUUCACUCCAGCGUUCUUCACUGCUCUAUGUCUGCUUACACAGCUUGGACAUGGCUGCUUUCCAUGAAGGAAAUAUAGGGGAGGUGGACUGUGGAAUUCUCGGGUGCCAA | 0.265 |
| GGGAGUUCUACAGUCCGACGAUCGUGGCUGGAUGUUCUCACGCCUGGCUCCGUUCUGCCUGUCUGGAGGCCUGGUCUGCUGGUCCACCUUCUUGACUGAAGAUUGGGUGUUUUCCAUAUUCUGGGAACAUUUUUGGAAUUCUCGGGUGCCAA | 0.297 |
| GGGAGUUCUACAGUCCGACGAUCUCCUGUAUAACAGACUGAGUCUAUUUAUAUUUUCUUUUUUUUAAGACUGUCUAGAAAUUUUGUGUAUUAUGAGGGGAAAAAAGGAAAAGCUUGAAUCUGUGUAGUCUCUGUGGAAUUCUCGGGUGCCAA | 3.59 |
| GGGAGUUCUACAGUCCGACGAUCAGGCAUCUCAAAUCCACUGACAGAUAAGAAAACCGCGUUAGAGGGAAAGUCACCUCUGCUAUUGUAGAAAGUGGCAGAAUAUCCAAACUUAACUCUAGCUUCCAUGUCUGUGGAAUUCUCGGGUGCCAA | 0.289 |
| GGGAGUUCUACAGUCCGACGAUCGCGGGCAGGUUUCUAGGCUGCUCUAAGCUUCUACCUUGAAGGCAGUUGGGUCUGAUAAUAGUACCUUCUUCCUGGGGUGGUUGUGAGGAUAUAACGAGGUAAUGCAUGUAUGGAAUUCUCGGGUGCCAA | 24.2 |
| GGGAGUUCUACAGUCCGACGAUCAGAGUGCAGUGGAGUUGCGCUGGCCAUCAGUGUUUGGGGUCUGAGUUUGAUAGACUAGUGCAGCGAUCAGCCAUAUGAUUGAGAGCUACUUUGGGGAUAUAUGGUACGUUUGGAAUUCUCGGGUGCCAA | 1.49 |
| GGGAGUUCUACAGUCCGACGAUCAGAAAACUGGACCUGAGGGCAUUAGGAACAUCCUACAGAGUUGUGUUUAGUGUCGUUUGCCAUGGUAUUUCACAGUGAAACAUGGAUACUCUCCACACAUCAUUUACUUCUGGAAUUCUCGGGUGCCAA | 0.365 |
| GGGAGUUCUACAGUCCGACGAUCUUCUAGCCAGAUCAGCCACUGAGCGGUAAGCAUCAGCGCUCAGCAGAGCCUUCCGAGCAGCAUUUAGAAAGCACCUUUGGGAAUGAUGGACUGCAAGGGAGUGGGCGGAUUGGAAUUCUCGGGUGCCAA | 13.1 |
| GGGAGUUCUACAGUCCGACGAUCCAUAAGGAGCUUUAGACCAGUCAAUGAUACAUAGUGAAACCCUACCUCAAAAACAAAACAAAAAAAAUGUUUUUACGCAUUUUAUCAAAAUUAGCACAUCUGUGGCUGAGUGGAAUUCUCGGGUGCCAA | 0.48 |
